Assay results pooled from the literature.
Each numbered part is a random draw from the data of one study; scales do not carry over between parts.

Study 1
Target: RING finger protein unkempt homolog, zinc fingers 1-6, GST-SBP tag (UNK, Homo sapiens, UniProt Q9C0B0, residues 30-357)
Technique: RNA Bind-n-Seq
Molecule type: RNA
Medium: in vitro
Concentration: not given
Notes: RNA with constant flanks, human and mouse sites, ends assumed
Baseline: input RNA pool
Reading: higher = stronger binding
Constant ends, left off below: GGGAGUUCUACAGUCCGACGAUC … CAACAGAGGAUUGAGCAUCA
Target sequence (chain): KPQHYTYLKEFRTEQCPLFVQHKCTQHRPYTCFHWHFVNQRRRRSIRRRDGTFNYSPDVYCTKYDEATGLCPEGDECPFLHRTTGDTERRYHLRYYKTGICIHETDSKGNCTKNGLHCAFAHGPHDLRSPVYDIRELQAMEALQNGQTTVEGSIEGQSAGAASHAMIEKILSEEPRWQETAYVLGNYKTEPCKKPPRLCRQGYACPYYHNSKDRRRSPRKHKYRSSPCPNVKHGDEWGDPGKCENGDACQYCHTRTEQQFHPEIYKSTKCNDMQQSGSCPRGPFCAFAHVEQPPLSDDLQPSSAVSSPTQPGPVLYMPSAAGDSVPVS
| Oligonucleotide | bound/input enrichment |
| --- | --- |
| GCCAUGACACUUGAUGAGACUAGUGUGUCUGCCCUAGUUGGAUUUAUCCAAUGUCAGUUGAUAGAAGGGCAAUUACAGGAUGCAGAUCAGCAGCUAGAAUUUUUAAAUGAAAUCCAGCAA | 0.486 ratio |
| GAUCUCGUCUGAGCAUCUCUAGUGACCUUCUCUGCAUUAACUGUCAGUGCUACGGAUAUUUUUAGCUCCAAGUCCUGGCAGGGUGGGGCACCUAUCUGAGGCAGGGUUUGGUGCCCCCUC | 0.283 ratio |
| AGCAUUUCUUUUCUUUUAGGGAUGUCUGAAAGUCACAUCCAGUUACAUUACUGUGUUCUUUCUAAUGAAAAGUAAAGGUUUUAUAUAGAGAAACUUGAGUAAUUUUUACAUUUCUAAGAC | 0.219 ratio |
| GAGGCUUGCAAAGACAUCCUGCUGUUUAAGAAUCUGGAUCCGGAGCAGAUGUCUCAAGUAUUAGAUGCCAUGUUUGAAAAAUUGGUCAAAGAUGGGGAGCAUGUAAUUGAUCAAGGUGAC | 0.436 ratio |
| GCUUUGGCUUAGGACGUUGCUUUUGUGGUUGGACAUCCCUGUCUGCUGCUCUCCAGACUUAGAUACUAUGCUCUCUGUCUUCUUUUUCUCCCUAUGCUUUGUAUUUGAAAAUAGGUCUUU | 3.84 ratio |
| UACCGCUUCCCAACUACUGAUGGUAACCACCUACGGAUCCUGGAGCAGAUGGCAGAGAGCGUCCUCUCCCUGCACGUGCCUCGGCAGUUUGUGAAGCUACUGCUGGAAGAAGAUGCAGCC | 0.0965 ratio |
| CAAGGCAUCUGUCCUGAAAGCUGUUAAUUUAUGGUCUAGCAGAUUUAUAUUAUAUGCAGAUAAUAAUUAACUGGGGAUAAAAGAAUGGCAAGGGGUGACACAAAGUAGCAAACUGAAUAC | 0.443 ratio |
| GCUCAUGCUUAUCACAGUCGCUGUGUGGACCCCUGGCUCACUCAGACCCGCAAGACCUGCCCCAUCUGCAAACAGCCUGUACAUCGGGGUCCUGGCGAUGAGGAGCAGGAAGAAGAAACU | 0.0578 ratio |

Study 2
Target: Ras GTPase-activating protein-binding protein 1, RRM domain (G3BP1, Homo sapiens, UniProt Q13283)
Chain of UniProt Q13283 (whole entry, looked up): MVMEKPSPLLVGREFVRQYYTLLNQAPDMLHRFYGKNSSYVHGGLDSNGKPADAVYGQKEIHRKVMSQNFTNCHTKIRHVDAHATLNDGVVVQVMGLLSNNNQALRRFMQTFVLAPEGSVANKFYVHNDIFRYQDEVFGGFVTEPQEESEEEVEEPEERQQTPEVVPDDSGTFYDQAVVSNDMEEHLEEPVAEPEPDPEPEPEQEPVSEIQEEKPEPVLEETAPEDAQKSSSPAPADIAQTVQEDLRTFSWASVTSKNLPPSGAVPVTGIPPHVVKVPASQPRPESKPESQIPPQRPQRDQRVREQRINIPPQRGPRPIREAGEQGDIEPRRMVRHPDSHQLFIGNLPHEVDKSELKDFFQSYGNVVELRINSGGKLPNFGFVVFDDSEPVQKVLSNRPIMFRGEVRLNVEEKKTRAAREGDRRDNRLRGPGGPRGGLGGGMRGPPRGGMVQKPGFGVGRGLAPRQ
Technique: RNA Bind-n-Seq
Molecule type: RNA
Medium: in vitro
Concentration: 1 µM
Notes: whole 134-nt RNA, ends assumed
With: 150 mM KCl
Baseline: input library
Reading: higher = stronger binding
Constant ends, left off below: GGGAGUUCUACAGUCCGACGAUC … UGGAAUUCUCGGGUGUCAAGG
| Oligonucleotide | log2 enrichment |
| --- | --- |
| ACCAUGCAGGUGGGCAUCUUUGGGAAGUGGGGCAAGGUGGGGAUAGGGAGGGGGGUAACACUUUGGGAACAGGUGGUCCCAGGUCGUUUC | -0.409 |
| AGUCCUGUGCUACACAUCGUAUGUACCGAAUCGGGGUUUUUGGGGAAAGGGGUGGGGAAAGUAUUAUGUUACGCCGUUCGGAUCUGCACU | 1.03 |
| UCAAGUCCUGUGCUACACAUCGUAUGUACCGAAUCGGGAGGGAAAGGGUUUGGGAAAGUAUUAUGUUACGCCGUUCGGAUCUGCACUUCC | 0.706 |
| CAAGUCCUGUGCUACACAUCGUAUGUACCGAAUCGGUUUGGGUUUGGGUUUGGGGAAAGUAUUAUGUUACGCCGUUCGGAUCUGCACUUC | -0.287 |
| CUCAAGUCCUGUGCUACACAUCGUAUGUACCGAAUCGGAGGUUUUUUUGGUGGAAAGUAUUAUGUUACGCCGUUCGGAUCUGCACUUCCA | -0.277 |
| CAAGUCCUGUGCUACACAUCGUAUGUACCGAAUCGGUUUUGGUUUUGGGUUUUGGGAAAGUAUUAUGUUACGCCGUUCGGAUCUGCACUU | -0.218 |
| GUCCUGUGCUACACAUCGUAUGUACCGAAUCGGGUUUUUUUGGGUUUGGGUUUUUGGGAAAGUAUUAUGUUACGCCGUUCGGAUCUGCAC | -0.00668 |
| GCAGGAAGUAAAAACAAAUGGAAAUGCUUCGGAUAGUGACAGGGGUGGGGGUUGCUAAGGAAAGGGUGGGAUGGGAGUGGGUAAAGAGUU | 0.803 |

Study 3
Target: Phosphate system positive regulatory protein PHO4, full length, GST-tagged (PHO4, Saccharomyces cerevisiae, UniProt P07270, residues 1-312)
Technique: competition protein-binding microarray
Molecule type: double-stranded DNA, one strand shown
Medium: in vitro
Concentration: 2 µM
Notes: whole 60-bp probe, lowest competitor level
With: Cbf1 competitor, 0.05 µM
Reading: higher = stronger binding
Constant ends, left off below: … GTCTTGATTCGCTTGACGCTGCTG
Target sequence (chain): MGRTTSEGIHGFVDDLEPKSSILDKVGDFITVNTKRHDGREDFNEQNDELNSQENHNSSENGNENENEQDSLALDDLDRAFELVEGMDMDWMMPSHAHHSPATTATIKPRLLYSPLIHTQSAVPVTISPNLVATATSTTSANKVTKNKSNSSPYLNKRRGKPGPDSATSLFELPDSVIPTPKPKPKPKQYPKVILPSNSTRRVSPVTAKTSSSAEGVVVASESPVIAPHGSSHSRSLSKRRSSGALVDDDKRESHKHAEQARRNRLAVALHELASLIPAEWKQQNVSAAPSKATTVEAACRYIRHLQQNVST
| Oligonucleotide | fluorescence intensity [a.u.] |
| --- | --- |
| TTGGCCTAGCCGGTTCGCGTGTGTTTGTCGCTTTTG | 5380 |
| AGTCGAGCCGCCCGTCACGTGCGGAGCCGCCCTGCT | 18100 |
| GGAAACTTTTTAAAGCACGTGGAAGAGATATGAAGG | 19300 |
| CTTCTGTAAATTTGTCGAGTGGGTGGACGCGCCCCG | 4660 |
| ATCAAGACGGGATTGCACACGCATTAACAACAACTC | 8950 |
| AATTGGGGTGCGAGTCACGTGCAAAACGACGGTAGT | 17000 |
| TGCGCAACAACTTGTGTTGTGGGTGTATGTCTAGAA | 5800 |

Further values, each from its own experiment
| Substance | target | test | system | setting | how to read | endpoint | value |
| --- | --- | --- | --- | --- | --- | --- | --- |
| PhoQ, residues 284 288 289 292 302 303 HSYLQF | PhoP, residues 12 14 15 18 19 NHFIF (Escherichia coli, UniProt P23836) | Sort-seq, item: YFP reporter | E. coli | PhoQ-PhoP variant library, with: 10 µM Mg2+ | baseline: high Mg2+ state, higher = stronger signaling | fold induction | 2.34 |

Some of these lines once more (study 2):
| Oligonucleotide | log2 enrichment |
| --- | --- |
| CUCAAGUCCUGUGCUACACAUCGUAUGUACCGAAUCGGAGGUUUUUUUGGUGGAAAGUAUUAUGUUACGCCGUUCGGAUCUGCACUUCCA | -0.277 |
| AGUCCUGUGCUACACAUCGUAUGUACCGAAUCGGGGUUUUUGGGGAAAGGGGUGGGGAAAGUAUUAUGUUACGCCGUUCGGAUCUGCACU | 1.03 |
